Results pooled from the literature.
Protocols differ between the studies behind these lines. Numbers after ± are the reported error.

SMILES | test | system | conditions | endpoint | value
CC(CCC(=O)NCC(=O)O)C1CCC2C3C(O)CC4CC(OC5OC(C(=O)O)C(O)C(O)C5O)CCC4(C)C3CCC12C (centres unmarked) |  | human, SLCO1B1 *5/*35, plasma | geometric mean, sex-adjusted | plasma concentration | 46.7 ng/mL
CSCC[C@H](NC(=O)CNC(=O)[C@H](CCCCN)NC(=O)[C@H](CC(C)C)NC(=O)[C@@H]1CCCN1C(=O)[C@H](CO)NC(=O)[C@H](Cc1c[nH]cn1)NC(=O)[C@H](Cc1c[nH]c2ccccc12)NC(=O)[C@H](CCCNC(=N)N)NC(=O)[C@H](CC(C)C)NC(=O)[C@H](CCCNC(=N)N)NC(=O)[C@H](Cc1c[nH]c2ccccc12)NC(=O)[C@H](CS)NC(=O)CN1CCN(CC(=O)O)CCN(CC(=O)O)CCN(CC(=O)O)CC1)C(=O)O [copper-64 labelled] | radio-HPLC | mouse serum | 2 h, 37 °C | intact tracer remaining | ~20.1%
CC(C)[C@H](NC(=O)CNC(=O)[C@H](CCC(N)=O)NC(=O)[C@H](C)N)C(=O)O |  | human | 10 mg/kg single dose | subjects with severe adverse events | 0%
CC(=O)OC1O[C@@H]2O[C@@]3(C)CC[C@H]4[C@H](C)CCC([C@H]1C)[C@@]24OO3 (some centres unmarked) |  | Tg(fli1:EGFP) zebrafish embryos | 1.0 µg/mL, up to 48 hpf | dead embryos | 2 count
COC(=O)C[C@H](NC(=O)[C@H](C)NC(=O)[C@@H](NC(=O)[C@H](CC(=O)OC)NC(=O)[C@@H](NC(=O)c1ccc2ccccc2n1)C(C)C)C(C)C)C(=O)COc1c(F)cccc1F |  | rat pups, arterial blood | 1 mg/kg, 1 h | bicarbonate level | 26.3 ± 0.76 mM
CC[C@H](C)[C@H](NC(=O)CNC(=O)[C@H](CC(=O)O)NC(=O)[C@H](CC(C)C)NC(=O)[C@@H](NC(=O)[C@H](CC(N)=O)NC(=O)[C@H](CCC(N)=O)NC(=O)CNC(=O)[C@H](CC(C)C)NC(=O)[C@H](CCCCN)NC(=O)[C@H](CCC(=O)O)NC(=O)[C@@H](NC(=O)[C@H](CCCCN)NC(=O)[C@H](CCC(=O)O)NC(=O)[C@H](Cc1ccccc1)NC(=O)[C@H](CC(C)C)NC(=O)[C@H](CCCCN)NC(=O)[C@H](Cc1c[nH]c2ccccc12)NC(=O)[C@@H](N)CCC(=O)O)[C@@H](C)CC)[C@@H](C)CC)C(=O)N[C@H](C(=O)N[C@@H](CCCCN)C(=O)N[C@@H](CC(C)C)C(=O)NCC(=O)N1CCC[C@H]1C(=O)N[C@@H](CC(C)C)C(=O)N[C@@H](CC(C)C)C(=O)N[C@@H](C)C(=O)N[C@@H](CC(C)C)C(=O)N[C@@H](CC(C)C)C(=O)NCC(=O)N[C@@H](CCC(N)=O)C(=O)N[C@@H](CC(C)C)C(=O)N[C@H](C(=O)N[C@@H](CCC(N)=O)C(=O)N[C@H](C(=O)N[C@@H](C)C(=O)N[C@@H](CC(C)C)C(N)=O)[C@@H](C)CC)[C@@H](C)O)[C@@H](C)CC | circular dichroism | POPC vesicles 5 mM | 20 µM, fully membrane bound | helicity | 55%
CC[C@H](C)C(=O)N1CCC(NC(=O)Nc2ccc(OC(F)(F)F)c(F)c2)CC1 |  | healthy volunteers, both sexes | oral, 8 mg single dose, fed state | participants with any Moderate TEAE | 0%
[CH3][Ti+2][O]C(=O)c1ccc([S][Au][PH](c2ccccc2)(c2ccccc2)c2ccccc2)cc1.c1cc[cH-]c1.c1cc[cH-]c1 |  | C57BL/6 mice | 7 days | MTD | 5 mg/kg/day
CSCC[C@H](NC(=O)CNC(=O)[C@H](CC(=O)O)NC(=O)[C@@H](NC(=O)[C@@H](NC(=O)[C@@H](NC(=O)CNC(=O)[C@H](CCC(N)=O)NC(=O)[C@H](CCSC)NC(=O)[C@H](CC(=O)O)NC(=O)[C@H](C)NC(=O)[C@H](C)NC(=O)[C@@H](NC(=O)[C@H](CO)NC(=O)[C@@H](N)CC(C)C)[C@@H](C)O)C(C)C)C(C)C)[C@@H](C)O)C(=O)N[C@@H](C)C(=O)N[C@@H](CO)C(=O)NCC(=O)N[C@@H](CC(C)C)C(=O)N[C@@H](CC(=O)O)C(=O)N[C@@H](CCCCN)C(=O)N[C@@H](CC(=O)O)C(=O)N[C@@H](Cc1ccc(O)cc1)C(=O)N[C@@H](CC(C)C)C(=O)N[C@@H](CCCCN)C(=O)N1CCC[C@H]1C(=O)N[C@@H](CC(=O)O)C(=O)N[C@@H](CC(=O)O)C(=O)O | LC-MS/MS | patients, serum | intravenous infusion, 3.33 mg/kg | terminal half-life (t1/2γ) | 2.16 h
CC(C)[C@H](NC(=O)[C@H](Cc1c[nH]c2ccccc12)NC(=O)[C@H](Cc1ccccc1)NC(=O)[C@@H](NC(=O)[C@@H](NC(=O)[C@H](CCCCN)NC(=O)[C@@H](N)CCCCN)C(C)C)C(C)C)C(=O)N[C@@H](CCCCN)C(=O)N[C@@H](Cc1ccccc1)C(=O)N[C@@H](CCCCN)C(N)=O | ELISA, refers to: IL-4 | mouse, blood | intravenous, 500 µg/kg, 5 days | cytokine level | 13.1 ± 1.75 pg/mL
O=c1cc(-c2ccccc2)oc2c(Br)c(O)c(O)c(O)c12 |  | C57BL/6 mouse, plasma | oral, 250 mg/kg, single dose | MRT(0-inf) | 8.8 h
COc1cc(NC(=O)C(=O)c2c(C)n(Cc3ccc(Cl)cc3)c3ccc(C)cc23)ccn1 |  | male cynomolgus monkey, plasma | intravenous, 1 mg/kg, mean | clearance | 7.97 mL/min/kg
N=C(N)NCc1ccc(C(=O)NCCCC[C@H](NC(=O)N[C@@H](CCC(=O)O)C(=O)O)C(=O)O)cc1[211At] |  | SCID mouse, PC-3 xenografts, muscle | 2 h | tissue uptake | 0.34 ± 0.08 %ID/g
Cc1cccc(-c2cccc(C)n2)n1.[Cl-].[Cl-].[Ru+2].c1ccc(-c2ccccn2)nc1.c1ccc(-c2ccccn2)nc1 | shake flask | n-octanol/water | dark | log P | -1.85 ± 0.04
O=S(=O)(O)C(F)(F)C(F)(F)OC(F)(C(F)(F)F)C(F)(F)OC(F)C(F)(F)F (centres unmarked) | two-sample first-order model | human, both sexes, serum |  | elimination half-life | 296 days
CCCC[C@H]1C(=O)N(C)[C@@H](CCCC)C(=O)N[C@@H](CCCNC(=O)CN2CCN(CC(=O)O)CCN(CC(=O)O)CCN(CC(=O)O)CC2)C(=O)N[C@H](C(=O)NCC(N)=O)CSCC(=O)N[C@@H](Cc2ccc(O)cc2)C(=O)N(C)[C@@H](C)C(=O)N[C@@H](CC(N)=O)C(=O)N2CCC[C@H]2C(=O)N[C@@H](Cc2c[nH]cn2)C(=O)N[C@@H](CC(C)C)C(=O)N(C)CC(=O)N[C@@H](Cc2c[nH]c3ccccc23)C(=O)N[C@@H](CO)C(=O)N[C@@H](Cc2c[nH]c3ccccc23)C(=O)N1C [gallium-68 labelled] | static PET | NOD/SCID mice, CHO-hPD-L1 xenograft, CHO-hPD-L1 tumour | intravenous, 1 h post injection, after five atezolizumab treatments, together with: atezolizumab 10 mg/kg | tumour to muscle ratio | 2.55 ± 0.5
CC(C)(CN)CNC(=O)O[C@H]1CCCC2(C1)OOC1(O2)C2CC3CC(C2)CC1C3 (some centres unmarked) |  | human liver microsomes |  | CLint | 21.4 µL/min/mg
CCCCCCCCCCCCC(=O)O.O=C1CCCC2C3CCCN4CCCC(CN12)C34 (centres unmarked) | electrical conductivity | water | 313.15 K, critical micelle concentration | entropic term −TΔS of micellization | -8.14 kcal/mol
CC(C)C[C@@H](NC(=O)[C@@H](CCCCN)NC(=O)CNC(=O)CNC(=O)[C@@H]1CSSC[C@H](N)C(=O)NCC(=O)N[C@@H](CCCNC(=N)N)C(=O)N[C@@H](CCCNC(=N)N)C(=O)N[C@@H](C)C(=O)NCC(=O)NCC(=O)N[C@@H](CO)C(=O)N1)C(=O)N[C@H](C)C(=O)N[C@H](CCCCN)C(=O)N[C@H](CC(C)C)C(=O)N[C@H](C)C(=O)N[C@H](CCCCN)C(=O)N[C@H](CCCCN)C(=O)N[C@H](CC(C)C)C(=O)N[C@H](C)C(=O)N[C@H](CCCCN)C(=O)N[C@H](CC(C)C)C(=O)N[C@H](C)C(=O)N[C@H](CCCCN)C(=O)O |  | cynomolgus monkey, plasma | intravenous, 3 mg/kg, infusion | Vd | 2.9 L
CSCC[C@@H]1NC(=O)[C@@H]2CSSC[C@H](NC(=O)[C@H](CO)NC(=O)[C@H](C)N)C(=O)N[C@@H](CCCNC(=N)N)C(=O)N[C@@H]([C@@H](C)O)C(=O)N3CCC[C@H]3C(=O)N[C@@H](CCCCN)C(=O)N[C@@H](CC(=O)O)C(=O)N[C@H]3CSSC[C@H](NC(=O)[C@H](CCCCN)NC(=O)[C@H](CCCNC(=N)N)NC(=O)[C@H](CC(N)=O)NC1=O)C(=O)N[C@@H](CCCCN)C(=O)N[C@H]1CSSC[C@H](NC(=O)[C@@H]4CCCN4C(=O)[C@H](CC(=O)O)NC(=O)[C@H](C)NC3=O)C(=O)N[C@@H](C)C(=O)N[C@@H](CCCCN)C(=O)N[C@@H](CCC(=O)O)C(=O)N[C@@H]([C@@H](C)O)C(=O)NCC(=O)N[C@@H](CSSC[C@@H](C(N)=O)NC(=O)[C@H](CCCNC(=N)N)NC(=O)[C@H](CC(N)=O)NC1=O)C(=O)N1CCC[C@H]1C(=O)N[C@@H](Cc1ccc(O)cc1)C(=O)NCC(=O)N[C@@H](CCCCN)C(=O)N2 |  | DA rat, pristane-induced arthritis, serum | subcutaneous, single 0.1 mg/kg at onset, end of 21-day trial | albumin/globulin ratio | 3.14

Some of these lines once more:
SMILES | test | system | conditions | endpoint | value
O=c1cc(-c2ccccc2)oc2c(Br)c(O)c(O)c(O)c12 |  | C57BL/6 mouse, plasma | oral, 250 mg/kg, single dose | MRT(0-inf) | 8.8 h
